Experimental data collected from several papers.
Each line is one published result; not all experiments were run side by side. ± marks the error that the study gave.

SMILES = COCOC[C@H]1O[C@H](O[C@H]2[C@H](O[C@@H]3O[C@H](CO)[C@@H](O[C@H]4O[C@@H](CN)[C@@H](O)[C@H](O)[C@H]4N)[C@H]3O)[C@@H](O)[C@H](N)C[C@@H]2N)[C@H](N)[C@@H](O)[C@@H]1O; target = Mycobacterium smegmatis ribosome G1491C; assay = translation, cell-free luciferase synthesis; IC50 = 586 ± 16.8 µg/mL
SMILES = CC[C@@H]1CN2CCc3c([nH]c4cccc(OC)c34)[C@@H]2C[C@@H]1/C(=C\OC)C(=O)OC; target = anti-compound rabbit polyclonal IgG; assay = antibody binding, competitive indirect ELISA; setting = 1× PBST antibody diluent, Tween 0.05%; IC50 = 4.98 µg/mL
SMILES = CC1OCC2OC(OC3C(N)CC(N)C(O)C3OC3OC(CO)C(OC4OC(CN)C(O)C(O)C4N)C3O)C(N)C(O)C2O1 (stereo not drawn); target = Mycobacterium smegmatis ribosome G1491A; assay = translation, cell-free luciferase synthesis; IC50 = 41.8 ± 7.39 µg/mL
SMILES = CC(=O)N[C@H]1CNC(=O)[C@H](Cc2ccccc2)NC(=O)[C@H](Cc2ccccc2)NC(=O)CCCCCCCNC1=O; target = AgrC (Staphylococcus aureus); assay = reporter gene, inhibitor; test system = Staphylococcus aureus, AH1677 (USA300 LAC); setting = 24 h; IC50 = 3.94 µM
SMILES = CCS(=O)(=O)[C@H]1[C@H](O)[C@@H](N)[C@@H](O[C@H]2[C@H](O[C@@H]3O[C@H](CO)[C@@H](O[C@H]4O[C@@H](CN)[C@@H](O)[C@H](O)[C@H]4N)[C@H]3O)[C@@H](O)[C@H](N)C[C@@H]2N)O[C@@H]1CO; target = bacterial hybrid ribosome, human mitochondrial A site; assay = cell-free translation, inhibitor; IC50 = 207 µg/mL
SMILES = NC[C@@H]1O[C@H](O[C@H]2[C@@H](O)[C@H](O[C@@H]3[C@@H](O)[C@H](N)C[C@H](N)[C@H]3O[C@H]3O[C@H](CO)[C@@H](OCCO)[C@H](O)[C@H]3N)O[C@@H]2CO)[C@H](N)[C@@H](O)[C@@H]1O; target = Mycobacterium smegmatis ribosome G1491A; assay = translation, cell-free luciferase synthesis; IC50 = 5.99 ± 1.19 µg/mL
SMILES = CC(C)S[C@H]1[C@H](O)[C@@H](N)[C@@H](O[C@H]2[C@H](O[C@@H]3O[C@H](CO)[C@@H](O[C@H]4O[C@@H](CN)[C@@H](O)[C@H](O)[C@H]4N)[C@H]3O)[C@@H](O)[C@H](N)C[C@@H]2N)O[C@@H]1CO; target = bacterial hybrid ribosome, human mitochondrial A site; assay = cell-free translation, inhibitor; IC50 = 121 µg/mL
SMILES = CC[C@H](C)[C@H](NC(=O)[C@H](CCCCN)NC(=O)[C@@H](NC(=O)[C@H](CCC(N)=O)NC(=O)[C@H](CCCNC(=N)N)NC(=O)[C@H](CC(C)C)NC(=O)CNC(=O)[C@H](Cc1ccccc1)NC(=O)CNC(=O)[C@H](Cc1ccc(O)cc1)NC(=O)CNC(=O)[C@H](CCCCN)NC(=O)[C@@H](NC(=O)[C@H](Cc1ccccc1)NC(=O)[C@@H](NC(=O)[C@H](CC(=O)O)NC(=O)[C@@H](N)CCCNC(=N)N)C(C)C)[C@@H](C)O)[C@@H](C)CC)C(=O)N[C@@H](Cc1c[nH]c2ccccc12)C(=O)N[C@@H](Cc1ccccc1)C(=O)N[C@@H](CCC(N)=O)C(=O)N[C@@H](CC(N)=O)C(=O)N[C@@H](CCCNC(=N)N)C(=O)N[C@@H](CCCNC(=N)N)C(=O)N[C@@H](CCSC)C(=O)N[C@@H](CCCCN)C(=O)N[C@@H](Cc1c[nH]c2ccccc12)C(=O)N[C@@H](CCCCN)C(=O)N[C@@H](CCCCN)C(=O)O; target = cell death; assay = PI staining flow cytometry; test system = MEC1; setting = 90 min; IC50 = 3.3 µM
SMILES = CC(=O)N[C@H]1CNC(=O)[C@H](Cc2ccccc2)NC(=O)[C@H](Cc2ccccc2)NC(=O)COCCOCCNC1=O; target = AgrC (Staphylococcus aureus); assay = reporter gene, inhibitor; test system = Staphylococcus aureus, AH1747 (MW2); setting = 24 h; IC50 = > 10 µM
SMILES = Cc1cc(Nc2cc(CN(C)C)cc(NC(=O)c3cccc(Nc4ccnc5ccccc45)c3)c2)nc(N)n1; target = human DNA polymerase theta; assay = inhibitor; IC50 = 68 µM
SMILES = CC1(C)C(/C=C(\Cl)C(F)(F)F)C1C(=O)OC(C#N)c1cccc(Oc2ccccc2)c1 (stereo not drawn); target = glutathione S-transferase, Vaccinium arctostaphylos; assay = enzyme activity, inhibitor; setting = added: CDNB and GSH; IC50 = 530 µM
SMILES = CC(=O)N[C@H]1CSC(=O)[C@H](Cc2ccccc2)NC(=O)[C@H](Cc2ccccc2)NC(=O)CCCCCCCCNC1=O; target = AgrC (Staphylococcus aureus); assay = reporter gene, inhibitor; test system = Staphylococcus aureus, AH1677 (USA300 LAC); setting = 24 h; IC50 = 0.468 µM
SMILES = NC[C@@H]1O[C@H](O[C@H]2[C@@H](O)[C@H](O[C@@H]3[C@@H](O)[C@H](N)C[C@H](N)[C@H]3O[C@H]3O[C@H](CO)[C@@H](CCO)[C@H](O)[C@H]3N)O[C@@H]2CO)[C@H](N)[C@@H](O)[C@@H]1O; target = bacterial hybrid ribosome, human mitochondrial A site; assay = cell-free translation, inhibitor; IC50 = 31 µg/mL
SMILES = CCO[C@H]1[C@H](O)[C@@H](N)[C@@H](O[C@H]2[C@H](O[C@@H]3O[C@H](CO)[C@@H](O[C@H]4O[C@@H](CN)[C@@H](O)[C@H](O)[C@H]4N)[C@H]3O)[C@@H](O)[C@H](N)C[C@@H]2N)O[C@@H]1CO; target = Mycobacterium smegmatis ribosome G1491A; assay = translation, cell-free luciferase synthesis; IC50 = 40.8 ± 16.9 µg/mL
SMILES = CC[C@H](C)[C@H](NC(=O)[C@H](CCCCN)NC(=O)[C@@H](NC(=O)[C@H](CCC(N)=O)NC(=O)[C@@H](N)CCCNC(=N)N)[C@@H](C)CC)C(=O)N[C@@H](Cc1c[nH]c2ccccc12)C(=O)N[C@@H](Cc1ccccc1)C(=O)N[C@@H](CCC(N)=O)C(=O)N[C@@H](CC(N)=O)C(=O)N[C@@H](CCCNC(=N)N)C(=O)N[C@@H](CCCNC(=N)N)C(=O)N[C@@H](CCSC)C(=O)N[C@@H](CCCCN)C(=O)N[C@@H](Cc1c[nH]c2ccccc12)C(=O)N[C@@H](CCCCN)C(=O)N[C@@H](CCCCN)C(=O)N[C@@H](CO)C(=O)N[C@@H](Cc1c[nH]c2ccccc12)C(=O)N[C@H](C(=O)N[C@@H](Cc1c[nH]c2ccccc12)C(=O)N[C@@H](CCC(=O)O)C(=O)N[C@@H](CCCCN)C(=O)N[C@@H](CCCCN)C(=O)N[C@@H](CC(C)C)C(=O)N[C@@H](CCC(=O)O)C(=O)N[C@H](C(=O)N[C@@H](C)C(=O)N[C@H](C(=O)N[C@@H](CC(N)=O)C(=O)N[C@@H](CC(C)C)C(=O)N[C@@H](C)C(=O)N[C@@H](Cc1c[nH]c2ccccc12)C(=O)N[C@H](C(=O)N[C@@H](C)C(=O)NCC(=O)N[C@@H](CC(N)=O)C(=O)N[C@@H](CO)C(=O)N[C@@H](CC(N)=O)C(=O)N[C@@H](CCCCN)C(=O)N[C@@H](Cc1c[nH]c2ccccc12)C(=O)N[C@H](C(=O)N[C@@H](Cc1c[nH]c2ccccc12)C(=O)N[C@@H](CCCCN)C(=O)O)[C@@H](C)O)[C@@H](C)O)C(C)C)[C@@H](C)O)[C@@H](C)O; target = cell death; assay = PI staining flow cytometry; test system = MEC1; setting = 90 min; IC50 = 2.5 µM
SMILES = CC(C)C[C@@H](/C=C/S(C)(=O)=O)NC(=O)[C@H](CC(C)C)NC(=O)[C@@H](NC(=O)N[C@H](C(=O)NCc1ccccc1)C(C)C)C(C)C; target = rabbit 26S proteasome beta2; assay = trypsin-like activity; setting = 30 min, 37 °C, added: Ac-RLR-AMC; IC50 = 10 µM
SMILES = CCCCCCCCC(=O)NCc1ccc(O)c(OC)c1; target = mouse mAb 1-G12; assay = antibody binding, indirect competitive ELISA; IC50 = 0.383 µg/mL
SMILES = CCCCO[C@H]1[C@H](O)[C@@H](N)[C@@H](O[C@H]2[C@H](O[C@@H]3O[C@H](CO)[C@@H](O[C@H]4O[C@@H](CN)[C@@H](O)[C@H](O)[C@H]4N)[C@H]3O)[C@@H](O)[C@H](N)C[C@@H]2N)O[C@@H]1CO; target = Mycobacterium smegmatis ribosome G1491C; assay = translation, cell-free luciferase synthesis; IC50 = 348 ± 23.7 µg/mL
SMILES = CC(C)CS[C@H]1[C@H](O)[C@@H](N)[C@@H](O[C@H]2[C@H](O[C@@H]3O[C@H](CO)[C@@H](O[C@H]4O[C@@H](CN)[C@@H](O)[C@H](O)[C@H]4N)[C@H]3O)[C@@H](O)[C@H](N)C[C@@H]2N)O[C@@H]1CO; target = bacterial hybrid ribosome, human mitochondrial A site; assay = cell-free translation, inhibitor; IC50 = 180 µg/mL
SMILES = CCN(C)C(=O)Oc1ccccc1/C=C1\Cc2cc(OC)c(OC)cc2C1=O; target = CES2A, mouse; assay = irinotecan hydrolysis, inhibitor; test system = mouse intestinal S9; setting = 30 min preincubation, added: irinotecan; IC50 = 0.0903 µM
SMILES = COCOC[C@H]1O[C@H](O[C@H]2[C@H](O[C@@H]3O[C@H](CO)[C@@H](O[C@H]4O[C@@H](CN)[C@@H](O)[C@H](O)[C@H]4N)[C@H]3O)[C@@H](O)[C@H](N)C[C@@H]2N)[C@H](N)[C@@H](O)[C@@H]1OCOC; target = Mycobacterium smegmatis ribosome G1491A; assay = translation, cell-free luciferase synthesis; IC50 = 529 ± 76 µg/mL
SMILES = CCCS[C@H]1[C@H](O)[C@@H](N)[C@@H](O[C@H]2[C@H](O[C@@H]3O[C@H](CO)[C@@H](O[C@H]4O[C@@H](CN)[C@@H](O)[C@H](O)[C@H]4N)[C@H]3O)[C@@H](O)[C@H](N)C[C@@H]2N)O[C@@H]1CO; target = wild-type bacterial ribosome; assay = cell-free translation, inhibitor; IC50 = 0.07 µg/mL
SMILES = CC(=O)N[C@H]1CNC(=O)[C@H](Cc2ccccc2)NC(=O)[C@H](Cc2ccccc2)NC(=O)CCCCCCCCNC1=O; target = AgrC (Staphylococcus aureus); assay = reporter gene, inhibitor; test system = Staphylococcus aureus, AH1747 (MW2); setting = 24 h; IC50 = 2.61 µM
SMILES = NC[C@@H]1O[C@H](O[C@H]2[C@@H](O)[C@H](O[C@@H]3[C@@H](O)[C@H](N)C[C@H](N)[C@H]3O[C@H]3O[C@H](CO)[C@@H](SCCF)[C@H](O)[C@H]3N)O[C@@H]2CO)[C@H](N)[C@@H](O)[C@@H]1O; target = bacterial hybrid ribosome, human mitochondrial A1555G A site; assay = cell-free translation, inhibitor; IC50 = 52 µg/mL
SMILES = CO[C@H]1[C@H](O)[C@@H](N)[C@@H](O[C@H]2[C@H](O[C@@H]3O[C@H](CO)[C@@H](O[C@H]4O[C@@H](CN)[C@@H](O)[C@H](O)[C@H]4N)[C@H]3O)[C@@H](O)[C@H](N)C[C@@H]2N)O[C@@H]1CO; target = Mycobacterium smegmatis ribosome G1491A; assay = translation, cell-free luciferase synthesis; IC50 = 69 ± 11.5 µg/mL
SMILES = CC[S+]([O-])C1C(CO)OC(OC2C(N)CC(N)C(O)C2OC2OC(CO)C(OC3OC(CN)C(O)C(O)C3N)C2O)C(N)C1O (mixture of isomers); target = bacterial hybrid ribosome, human cytoplasmic A site; assay = cell-free translation, inhibitor; IC50 = 123 µg/mL
SMILES = CC(=O)NC1C(OC2OC(CC(O)C3OC(n4ccc(=O)[nH]c4=O)C(O)C3O)C(O)C(O)C2NC(=O)C=CCCCCCCCCCC(C)C)OC(CO)C(O)C1O (stereo not drawn); target = MraY; assay = enzyme activity, inhibitor; IC50 = > 50 µM

For quick reference, copied from above:
SMILES = CC(=O)N[C@H]1CSC(=O)[C@H](Cc2ccccc2)NC(=O)[C@H](Cc2ccccc2)NC(=O)CCCCCCCCNC1=O; target = AgrC (Staphylococcus aureus); assay = reporter gene, inhibitor; test system = Staphylococcus aureus, AH1677 (USA300 LAC); setting = 24 h; IC50 = 0.468 µM
SMILES = CC[C@H](C)[C@H](NC(=O)[C@H](CCCCN)NC(=O)[C@@H](NC(=O)[C@H](CCC(N)=O)NC(=O)[C@H](CCCNC(=N)N)NC(=O)[C@H](CC(C)C)NC(=O)CNC(=O)[C@H](Cc1ccccc1)NC(=O)CNC(=O)[C@H](Cc1ccc(O)cc1)NC(=O)CNC(=O)[C@H](CCCCN)NC(=O)[C@@H](NC(=O)[C@H](Cc1ccccc1)NC(=O)[C@@H](NC(=O)[C@H](CC(=O)O)NC(=O)[C@@H](N)CCCNC(=N)N)C(C)C)[C@@H](C)O)[C@@H](C)CC)C(=O)N[C@@H](Cc1c[nH]c2ccccc12)C(=O)N[C@@H](Cc1ccccc1)C(=O)N[C@@H](CCC(N)=O)C(=O)N[C@@H](CC(N)=O)C(=O)N[C@@H](CCCNC(=N)N)C(=O)N[C@@H](CCCNC(=N)N)C(=O)N[C@@H](CCSC)C(=O)N[C@@H](CCCCN)C(=O)N[C@@H](Cc1c[nH]c2ccccc12)C(=O)N[C@@H](CCCCN)C(=O)N[C@@H](CCCCN)C(=O)O; target = cell death; assay = PI staining flow cytometry; test system = MEC1; setting = 90 min; IC50 = 3.3 µM
